# Measured values of several laboratories.
# Parts stem from different laboratories: compare values within a part only.

# Sample 1
# Target: Centromere-binding protein 1, full length, His-tagged (CBF1, Saccharomyces cerevisiae, UniProt P17106, residues 1-351)
# Chain of UniProt P17106 (whole entry, looked up): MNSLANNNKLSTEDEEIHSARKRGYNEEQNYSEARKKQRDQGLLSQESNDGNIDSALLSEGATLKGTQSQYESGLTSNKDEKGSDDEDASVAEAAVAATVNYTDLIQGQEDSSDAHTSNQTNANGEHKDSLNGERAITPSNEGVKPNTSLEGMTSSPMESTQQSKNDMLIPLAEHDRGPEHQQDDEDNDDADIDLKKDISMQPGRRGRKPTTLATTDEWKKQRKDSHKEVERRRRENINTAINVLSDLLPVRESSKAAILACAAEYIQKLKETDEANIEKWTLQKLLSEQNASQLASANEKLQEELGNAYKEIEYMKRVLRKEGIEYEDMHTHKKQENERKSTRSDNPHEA
# Method: competition protein-binding microarray
# Molecule type: double-stranded DNA, one strand shown
# Matrix: in vitro
# Concentration: 2 µM
# Setting: whole 60-bp probe, lowest competitor level
# Added: Pho4 competitor, 0.05 µM
# Reading: higher = stronger binding
# Shared flanks, not repeated: … GTCTTGATTCGCTTGACGCTGCTG
Strand,fluorescence intensity [a.u.]
CTAATCAGCAAGACACATGTGCCTTGCAGTAGGGCA,153
GAATTTGACCAAAACCACGTGGTTTGGCTGCAAGTT,2400
TATTATTGATCGAGTCACGTTCTTCCAACGTTTCCG,888
CTACGCTATGGAAACCGCGTGCCAGACTGGTAGAGT,69
AAATTAATTATTCAACACGTGATGGAGTTACTCTAA,6300
TTCAAGGATCGAAAGCACGTCGCATAATACGGTAAT,79.7
TTACAGAGATACCAACACGTCCCATTGCAGTACATC,67
AAATTACTAAGTTGGGAAGTGGGTGACGCCGTATGA,67
CTGAACCAGATGTTGCTCGTGGATTGGTTCGGTACC,65
TACATTTATGGCCTGTTCGTGATGGGTCAGCGAGCC,81.5
AACATGAAATACGAATTTGTGATGAAGATACCCTCA,86.6
GGAGTAGACACACTACACGTGATGGCAGTAGGAGAG,1520
AGGACCTGCGTCCTTCACGCTGAAGCGGCAGCAAGC,57
CATACCCAACCTTTTCACGTGGTATAAGATATTTGT,1180
CTAACGAAGGTTTGTCACCATACTTACAAGCCAAGT,80.3
TCGGCCATTGAGTTCCACGTTTAATACCGCCAGAGT,72.2
CCGGTGTTACCCAAGCTCGTGTTTTCACTGGTAACA,71.6
TGCGCAACAACTTGTGGCGTGGGTGTATGTCTAGAA,66.6
CTAACGAAGGTTTGCGTCGTGGGTGACAAGCCAAGT,75.6
CGTTGCTTATTAAGTGACATGACGCTATTGTATTGT,85.1
TGTCTTATCTGCTCCTTTGTGATATTACGGTCTCAA,64.7
TAGGAGACTAGTGGTTATGTGACGGTGCGAACCTAA,60
CCGGGTGATGCTTGACGCGTTTTTGGAAACGATGAG,69.5
TCTCAATTATTGACTCACATGCCTCCTGGTAATACG,222
GCGCAACAAATACCTGATGTGACGCCTACCCTTTGG,63.9

# Sample 2
# Target: Interferon regulatory factor 7, full length, phosphomimetic (IRF7, Homo sapiens, UniProt Q92985, residues 1-503, S101K/S471D/S472D/S475D/S476D/S477D/S483D/S484D/S487D)
# Method: protein-binding microarray
# Molecule type: double-stranded DNA, one strand shown
# Matrix: in vitro
# Concentration: 250 nM
# Setting: 60-bp whole probe
# Added: salmon DNA 0.4 mg/ml
# Relative to: random background probes
# Reading: higher = stronger binding
# Shared flanks, not repeated: GCCTAGCAC … GTCTTGATTCGCTTGACGCTGCTG
# Construct (chain): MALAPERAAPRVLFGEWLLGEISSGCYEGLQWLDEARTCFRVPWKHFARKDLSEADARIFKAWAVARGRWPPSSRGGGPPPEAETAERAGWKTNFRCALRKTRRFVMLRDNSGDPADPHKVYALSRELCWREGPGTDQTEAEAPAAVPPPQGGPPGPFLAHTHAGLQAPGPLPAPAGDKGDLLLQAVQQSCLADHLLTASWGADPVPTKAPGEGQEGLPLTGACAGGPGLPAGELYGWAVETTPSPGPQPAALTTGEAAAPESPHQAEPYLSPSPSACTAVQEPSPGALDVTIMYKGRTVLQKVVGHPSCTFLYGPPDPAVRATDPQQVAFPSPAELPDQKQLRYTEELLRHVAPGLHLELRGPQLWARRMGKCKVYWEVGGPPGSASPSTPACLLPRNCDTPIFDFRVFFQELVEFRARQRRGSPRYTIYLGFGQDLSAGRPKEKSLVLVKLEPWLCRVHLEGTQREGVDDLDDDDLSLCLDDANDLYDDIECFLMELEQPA
Strand,log fluorescence
GACGGTATCGAAACTGGGGACGTGCTA,1.29 z-score
GACGGTTTCCTTATCTTGACGTGCTAG,2.73 z-score
TAAGGTCTCCTTCTCCTTTAGTGCTAG,0.445 z-score
GACGGACTGCTTTTCCTGGCGTGCTAG,-0.0665 z-score
TTAGGTTTCGGTACTGGGTTAGTGCTA,6.21 z-score
TTAGGTTTCCGTTCCGGTTAGTGCTAG,5.58 z-score
TCAGCTTTGTGCCTAGCACTGTGCTAG,-0.519 z-score
CCGCATATCGGGGTGCGCCCGGTGCTA,-0.00873 z-score
GACGGTTCCCTTTTCATGACGTGCTAG,2.38 z-score
GACGGTATCGACTATCGGGATGTGCTA,-0.355 z-score
GACGGTCTCGGTTTCGGGAGGTGCTAG,7.26 z-score
GACGGTCTTCTTTTCCTGACGTGCTAG,0.734 z-score
GACGAACTGGGGACGGGAGACGTGCTA,-0.236 z-score
GAAATTCTCATTTCCAATTAGTGCTAG,1.58 z-score
GAAGGTATCGGTTTCGGGACGTGCTAG,7.18 z-score
TTTGGTATCCTACTGCTTTAGTGCTAG,0.0834 z-score
TTAGATTCCAGACTGGATTAGTGCTAG,0.594 z-score
TCACAACTTTTTTTAATACTGTGCTAG,0.249 z-score
TTAGAACTGGCGTATCGATTAGTGCTA,-0.609 z-score
GTCGGTTTCGGGTTTCGGGACGTGCTA,12.3 z-score
GACGAACTGAGTCACGAGACGTGCTAG,0.119 z-score

# Sample 3
# Target: Sal-like protein 4, full length isoform B (SALL4, Homo sapiens, UniProt Q9UJQ4-2, residues 1-616)
# Method: universal PBM
# Molecule type: double-stranded DNA, one strand shown
# Matrix: in vitro
# Concentration: not given
# Setting: 8-mer, flanks averaged, mean of replicates
# Reading: higher = stronger binding
# Target sequence (chain): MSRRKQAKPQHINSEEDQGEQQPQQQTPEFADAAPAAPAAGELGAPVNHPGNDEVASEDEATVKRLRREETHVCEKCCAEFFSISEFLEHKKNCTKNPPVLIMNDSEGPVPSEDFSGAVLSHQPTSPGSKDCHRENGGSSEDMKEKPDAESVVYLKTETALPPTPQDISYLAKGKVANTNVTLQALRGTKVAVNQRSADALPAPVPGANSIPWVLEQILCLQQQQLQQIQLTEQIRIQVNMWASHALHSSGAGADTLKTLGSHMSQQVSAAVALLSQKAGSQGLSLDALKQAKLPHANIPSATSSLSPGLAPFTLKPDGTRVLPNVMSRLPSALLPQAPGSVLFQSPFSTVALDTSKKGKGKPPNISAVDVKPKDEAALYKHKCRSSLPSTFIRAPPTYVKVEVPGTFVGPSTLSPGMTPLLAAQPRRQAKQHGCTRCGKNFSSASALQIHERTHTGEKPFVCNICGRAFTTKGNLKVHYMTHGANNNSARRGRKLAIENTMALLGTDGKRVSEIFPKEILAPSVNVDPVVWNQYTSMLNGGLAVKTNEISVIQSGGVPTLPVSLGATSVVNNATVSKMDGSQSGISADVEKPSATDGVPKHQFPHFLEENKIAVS
Strand,E-score
GAAAACTA,0.116
GCGGCGAC,-0.221
GTACCTAA,0.043
CAACTGTG,-0.0389
ACTAGGTC,-0.14
CAACCTAA,-0.0105
ATAAAGCA,0.205
TACGGAAA,0.125
GTCACTTA,0.197
CAGGTTAA,0.00298
CGCCGAGC,-0.263
CGGCGGGC,-0.373
CACTTACG,0.0229
AAGGAAGC,-0.144
CCCGGTCC,-0.409
CAAGCACA,-0.0649
AGTTTTTC,0.101

# Sample 4
# Target: RNA binding protein fox-1 homolog 2, RRM domain, GST-SBP tag (RBFOX2, Homo sapiens, UniProt O43251-10, residues 100-194)
# Method: RNA Bind-n-Seq
# Molecule type: RNA
# Matrix: in vitro
# Concentration: 365 nM
# Setting: natural RNA segment, single round, ends assumed
# Relative to: no-protein control
# Reading: higher = stronger binding
# Shared flanks, not repeated: GGGAGUUCUACAGUCCGACGAUC … UGGAAUUCUCGGGUGCCAA
# Residues (chain): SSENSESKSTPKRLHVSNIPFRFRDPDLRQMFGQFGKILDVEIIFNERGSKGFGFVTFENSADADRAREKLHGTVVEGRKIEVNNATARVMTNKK
Strand,RBNS enrichment (R)
UCUCCCUUUUAGCUAAAAUCUGAGAGUAGAAUAACCUGAUCUUUGAGGCCUCUUCCAAUGUUAGUCUUUUCUAAGGUAAUUUUUAGUAGGUCAUAAUUCAGUAUAUACUA,0.233
CCGAGAUUGCUUUGAGAACUGGUAGUUAUUCUCUUUAUGUUUGGAGGCAGCCAUUAGGCUGUAGGCCUGCUUACUGCAUAGCACUGGACGUGCCAGGCACAUUCUGGCCC,0.526
ACGCCAAGGACACUCGCCACUAUUCACACGCUGUGCCGAGGGUGUGUGGAGGGACAACAGAGAGCAGUGUAUCUGAGUAAGAUGCACACAUCGAAGUGCGUUCAAAGUCU,0.446
GUAUUUAAAUUAAGUCUUUGCUGCACUUAAAUUCAUACCCAGCCAAAAUGGAACUUUAGGCCAACCCCCAGCCUUCUGUUGCUAGGGUUGGUCUCCUACAGACACAGUGA,0.204
UCUUCACUUGCUAAAGCAGCUAAACUGUGAAGCUCUAAGUGGUUUGGGUUUGUUGUUUAACCUUAGCGAGAUCCUUUAACUGCAGCAAUAUUCAAGCCAGAUAUUUGGAA,0.551
ACUGUAGUCCUAUUGAGAAGACAUUUCGUCUCUGAGAAAAAAGGAUGGAACUAUGGGUUCUCUUCGCAAAGCCAAAGGAUAGUGUUUAACAAGCCAGCUGGCUUAUGCUG,0.27
CCCGAGCUGUGGGCCACCCUGGGGGCGCUGUCGCUGCUGUUUCCCUGCCCGAGAAUCAGCUUGAAUUCCCACUUCUGCUUGUUGGCCCCAGCUCUGGCUUUGCAUCCUUA,2.81
UGAUCCACCUGCCUCGGCCUCCCAAAGUGGGAAAUGGGUCAUUUUCAAAGGGGCAACAGUGAUACCAUCCCUGCACUCCUGGGUCCUGCUCUUCCAAUGCCCAAGGCAUG,0.249
GAAAAGUAAGGAGUUAGGUGGCUUGAUAAUAGGCAGGGAAACCAGAUUGUCGGGACUAUGACCUUUUUCUCCAGUAUGCUACCUGAUUUGUUUGGCUGGCCACUAGGUGG,0.441
GGGAGGGGAGGGUGUUCUUCCCAACCUAGGGUCCCAGCUGUCUUCACCUGUUCUUACCCACGUCCCUCCUCAAUAAAGAAGCCAGUCAGGCGUGGUUAUAUGUUGCUACG,0.244
CCAUUACAGAUGGUUGUGAGCCGCCAUGUGGUUGCUGGGAGUAGAACUCAGGACCUCUGGGAAAGCAGUCAGUGCUCUUAACCACUGAGCCAUCUCUCCAGCCCCCUAGA,0.284
CUUGCAGAAUCGUCUUCAUUUCAUCAGACCUAUUGGGGGUGAACAGUAAUUAAUAGGAGGCCCAGCCUGGCAGACGCUUGCUGACGCUCCUUGGCUCUUGCCUGCUUGUC,0.552
